Measurements collected from several papers.
Each line is one published result; not all experiments were run side by side. Numbers after ± are the reported error. ≈ marks a conversion by molar mass, not a printed value.

Cc1ccc(Nc2n[nH]c3nc(-c4ccc(F)cc4)nc(N)c23)cc1 — IC50 (rhinovirus B42; viral cytopathic effect; HeLa): 920 nM
C=C(NC(=O)c1csc(-c2nc3c(cc2O)-c2nc(cs2)C(=O)NC(C(C)O)C(=O)NC(=C(C)OC)c2nc(cs2)C(=O)NC2c4nc(cs4)C(=O)NC(COC(=O)c4c5c6c(cccc6n4O)COC(=O)C(OC4CC(C)(O)C(N(C)C)C(C)O4)C2OC5)c2nc-3cs2)n1)C(N)=O (stereo not drawn) — MIC50 (Staphylococcus aureus; broth microdilution; methicillin-susceptible isolates): 0.0156 µg/mL (≈ 0.0109 µM)
O=C(NCc1ccc(OC(F)(F)F)cc1)[C@H]1CCCN(c2ncnc3[nH]c(-c4ccc(C(F)(F)F)cc4)cc23)C1 — inhibition (NCI-H2228; cell growth or viability, MTT; 1 µg/mL, 72 h): 31.7%
Cc1ncsc1-c1ccc(C(C)NC(=O)C2CC(O)CN2C(=O)C(NC(=O)CCCCCCCCCCN2CCCC(Nc3ncc(Cl)c(Nc4ccccc4S(=O)(=O)C(C)C)n3)C2)C(C)(C)C)cc1 (stereo not drawn) — log2 fold change (22Rv1; RNA-seq, refers to: SLC16A6 mRNA; concentration not given; baseline: DMSO): -1.22
COc1ccc(C(=O)CCc2cc(C(CCc3ccc(O)cc3OC)c3ccc(O)cc3)c(O)cc2OC)cc1 (racemic) — PGD2 level (human blood; 30 µM, added: A23187): 4 ± 4 pg/mL
CCN(CC)CC(=O)Nc1cccc(-n2cc(-c3ccc4ccc(-c5cn(-c6cccc(NC(=O)CN(CC)CC)c6)nn5)cc4c3)nn2)c1 — fold regulation (RCC4; PCR angiogenesis array, refers to: PECAM1; 5 x IC50, 4 h, normoxia; baseline: untreated): 1.09
CN1CCCNC(=O)c2cccc(c2)C(=O)NCCCN(C)CCCNc2cccc3c2C(=O)c2cccc(c2C3=O)NCCC1 — log2 fold change (SAS; RNA-Seq, refers to: EIF4ENIF1 mRNA; 1 µM, 6 h; baseline: untreated cells): -0.908
CC(C)c1ccc(N(C)c2ccc3c(c2)OCC[C@H]3CNc2cnccc2C(=O)O)cc1 — IC50 (CHL-1; cell growth or viability, ATP luminescence; 7 days): 6.08 nM
COc1cc(O)ccc1CCC(c1ccc(O)cc1)c1cc2c(c(C)c1O)OC(c1ccc(O)cc1)CC2 (mixture of isomers) — PGD2 level (human blood; 10 µM, added: A23187): 4 ± 2 pg/mL
Cc1noc(C)c1-c1cc2c(N3CCC[C@H](C(=O)NCc4ccc(OC(F)(F)F)cc4)C3)ncnc2[nH]1 — inhibition (NCI-H2228; cell growth or viability, MTT; 0.2 µg/mL, 72 h): 65.3%
CC(=O)[O-].O.O.[O-]c1ccc(Br)cc1C=NCCN1CCOCC1.[Zn+2] — inhibition (hydroxyl radical scavenging; 200 µM): 45.9%
CN1CCC[C@]1(C)/C=C/S(=O)(=O)NC(=O)Nc1c2c(cc3c1CCC3)CCC2 — IL-1β inhibition (human, whole blood ex vivo; 12.5 mg twice daily, day 1, 6 h, multiple ascending dose, added: LPS and ATP): 96.7%
O=S(=O)(NCc1ccncc1)c1ccc(C2CCCCC2)cc1 — upregulated genes number (bulk RNA sequencing; CK-p25 mice, female, microglia; intraperitoneal, 0.3 mg/kg daily for 2 weeks, 336 h): 295 genes
COc1ccc(Nc2n[nH]c3nc(-c4ccccc4)nc(N)c23)c(OC)c1 — IC50 (coxsackievirus B3; viral cytopathic effect; HeLa): 66500 nM
C=CC(=O)N1[C@@H](c2ccc3c(c2)OCO3)c2[nH]c3ccccc3c2C[C@H]1C(=O)N1CCN(C)CC1 — log2 fold change (CCNE1 WT-3xFLAG:CDK2 complex; co-IP TMT proteomics, refers to: CKS1B; HEK-293T; 20 µM, 6 h; baseline: DMSO): 0.19
Cc1cc(N2CCCCC2)ccc1-c1cc2c(N3CCC[C@H](C(=O)NCc4ccc(OC(F)(F)F)cc4)C3)ncnc2[nH]1 — inhibition (NCI-H2228; cell growth or viability, MTT; 0.04 µg/mL, 72 h): 45.7%
Nc1ncc(-c2cc(-c3cnn(CC(F)(F)F)c3)ncc2F)nc1C(=O)NC1CNCC(F)C1 (stereo not drawn) — remaining binding (WNK4; KINOMEscan; 1 µM; baseline: DMSO control): 100%
Nc1nc(-c2ccccc2)nc2[nH]nc(Nc3ccc(F)cc3F)c12 — IC50 (coxsackievirus B3; viral cytopathic effect; HeLa): 120 nM
C=CC(=O)Nc1cccc(Cn2ncc3cnc(Nc4cnn(CCOC)c4)nc32)c1 — percent of control (PLK2 human; binding, KINOMEscan; 100 nM; lower = stronger binding): 100%
Cc1c(C)c2cccnc2c2ncccc12.O=[N+]([O-])[O-].O=c1c(C=NN=C([S-])Nc2ccccc2)coc2ccccc12.[Cu+2] — supercoiled DNA remaining (supercoiled pUC19 DNA; oxidative DNA cleavage; concentration not given, superoxide dismutase 1 U, added: ascorbic acid): 0%
O=C(NCc1ccc(OC(F)(F)F)cc1)[C@H]1CCCN(c2ncnc3[nH]c(-c4ccc(N5CCOCC5)cc4)cc23)C1 — inhibition (NCI-H2228; cell growth or viability, MTT; 0.2 µg/mL, 72 h): 66.3%
Nc1nc(-c2ccc(OC(F)(F)F)cc2)nc2[nH]nc(Nc3ccccc3)c12 — IC50 (coxsackievirus B3; viral cytopathic effect; HeLa): 11100 nM
CNS(=O)(=O)Nc1nccc(Cc2c(C)c3ccc(Oc4ncccc4F)cc3oc2=O)c1F — IC50 (SKNO-1; cell viability; 7 days): 4.99 nM
COC1CN([C@H]2CC[C@H]([C@@]3(C)Oc4c(Cl)cc(C(=O)NCc5c(SC)cc(C)[nH]c5=O)c(C)c4O3)CC2)C1 — log2 fold change (RNA-seq, refers to: ZNF704 mouse homolog; mouse, HT-1376 xenograft, whole blood; dose not given; baseline: vehicle): 0.329

A few entries again:
CN1CCCNC(=O)c2cccc(c2)C(=O)NCCCN(C)CCCNc2cccc3c2C(=O)c2cccc(c2C3=O)NCCC1 — log2 fold change (SAS; RNA-Seq, refers to: EIF4ENIF1 mRNA; 1 µM, 6 h; baseline: untreated cells): -0.908
COc1ccc(C(=O)CCc2cc(C(CCc3ccc(O)cc3OC)c3ccc(O)cc3)c(O)cc2OC)cc1 (racemic) — PGD2 level (human blood; 30 µM, added: A23187): 4 ± 4 pg/mL
Cc1cc(N2CCCCC2)ccc1-c1cc2c(N3CCC[C@H](C(=O)NCc4ccc(OC(F)(F)F)cc4)C3)ncnc2[nH]1 — inhibition (NCI-H2228; cell growth or viability, MTT; 0.04 µg/mL, 72 h): 45.7%
